Measured values pooled from the literature.
Protocols differ between the studies behind these lines. Values joined by “and” are separate records of one study, mostly repeats; a detail may differ. ± marks the error that the study gave. In brackets after ≈: the same amount, converted by molar mass.

SMILES	organism	test	test system	setting	how to read	quantity	result
Nc1c(C(=O)Nc2cccc(Cl)c2)sc2nc(-c3ccncc3)ccc12	Bacillus anthracis		Sterne			MIC50	> 160 µM
NC12CC3CC(CC(C3)C1)C2	Influenza A virus	viral replication	MDCK, A/Swine/Minnesota/34-0818/2011 (H1N2)			EC50	< 1000 nM
CSCC[C@@H]1NC(=O)[C@H](CC(C)C)NC(=O)[C@H](CCCNC(=N)N)NC(=O)[C@H](CO)NC(=O)[C@@H]2CSSC[C@@H]3NC(=O)[C@H](CO)NC(=O)CNC(=O)[C@H]([C@@H](C)O)NC(=O)[C@H](CSSC[C@H](N)C(=O)N[C@@H](CCCCN)C(=O)NCC(=O)N[C@@H](CCCCN)C(=O)NCC(=O)N[C@@H](C)C(=O)N[C@@H](CCCCN)C(=O)N2)NC(=O)[C@H](CSSC[C@@H](C(N)=O)NC(=O)[C@H](CCCCN)NC(=O)CNC(=O)[C@H](CO)NC(=O)[C@H](CCCNC(=N)N)NC3=O)NC(=O)[C@H](CC(=O)O)NC(=O)[C@H](Cc2ccc(O)cc2)NC1=O	Candida tropicalis					MIC	39.8 µM (≈ 105 µg/mL)
CC(C)[C@H](NC(=O)[C@H](Cc1c[nH]c2ccccc12)NC(=O)[C@H](CCCNC(=N)N)NC(=O)[C@H](Cc1c[nH]c2ccccc12)NC(=O)[C@H](Cc1c[nH]c2ccccc12)NC(=O)[C@H](CCCNC(=N)N)NC(=O)[C@@H](N)CCCNC(=N)N)C(=O)N[C@H](C(=O)N[C@@H](Cc1c[nH]c2ccccc12)C(N)=O)C(C)C	Mycobacterium bovis		isoniazid-resistant mutant, broth with pyruvate	48 h, 37 °C		MIC	20 µM (≈ 28.6 µg/mL)
CC[C@H](C)[C@H](NC(=O)[C@H](Cc1ccc(O)cc1)NC(=O)[C@H](CO)NC(=O)[C@H](CCC(=O)O)NC(=O)[C@H](CC(N)=O)NC(=O)[C@H](CC(C)C)NC(=O)[C@H](C)NC(=O)[C@H](CCCCN)NC(=O)[C@@H](NC(=O)[C@@H](NC(=O)[C@H](CCC(N)=O)NC(=O)[C@H](CCC(N)=O)NC(=O)[C@H](CC(C)C)NC(=O)[C@H](CO)NC(=O)[C@H](CC(C)C)NC(=O)[C@H](CCSC)NC(=O)[C@H](CCC(=O)O)NC(=O)[C@H](Cc1ccc(O)cc1)NC(=O)[C@@H](NC(=O)[C@H](CC(C)C)NC(=O)[C@H](CC(=O)O)NC(=O)[C@H](CC(C)C)NC(=O)[C@H](CC(C)C)NC(=O)[C@@H](NC(=O)[C@@H](NC(=O)[C@H](CC(N)=O)NC(=O)[C@@H](NC(=O)[C@H](CCC(N)=O)NC(=O)[C@@H](NC(=O)[C@H](CC(C)C)NC(=O)[C@@H](N)CO)[C@@H](C)O)[C@@H](C)CC)[C@@H](C)O)[C@@H](C)O)[C@@H](C)O)C(C)C)C(C)C)C(=O)N[C@@H](CC(=O)O)C(=O)N[C@@H](CC(C)C)C(=O)N[C@@H](CCCCN)C(=O)N[C@@H](CCC(=O)O)C(=O)N[C@@H](CC(C)C)C(=O)O	MERS-CoV	viral infection, CPE MTT	Calu-3			IC50	600 nM
C[n+]1ccccc1/C=N/O	dichlorvos		Swiss mice	30 mg/kg, added: atropine	reference: untreated poisoned mice	protection	3.41 fold
CS(=O)(=O)NC(=O)CCc1cn(-c2ccc(Br)cc2)nc1-c1ccc(Cl)cc1	Mycobacterium tuberculosis	OD600	cyd deletion mutant			MIC	4 µM (≈ 1.93 µg/mL)
CC(=O)N1C[C@@H](COP(=O)(N(C)C)N2C[C@@H](COP(=O)(N(C)C)N3C[C@@H](COP(=O)(N(C)C)N4C[C@@H](COP(=O)(N(C)C)N5C[C@@H](COP(=O)(N(C)C)N6C[C@@H](COP(=O)(N(C)C)N7C[C@@H](COP(=O)(N(C)C)N8C[C@@H](COP(=O)(N(C)C)N9C[C@@H](COP(=O)(N(C)C)N%10C[C@@H](COP(=O)(N(C)C)N%11C[C@@H](COP(=O)(N(C)C)N%12C[C@@H](COP(=O)(N(C)C)N%13C[C@@H](COP(=O)(N(C)C)N%14C[C@@H](COP(=O)(N(C)C)N%15C[C@@H](COP(=O)(N(C)C)N%16C[C@@H](COP(=O)(N(C)C)N%17C[C@@H](COP(=O)(N(C)C)N%18C[C@@H](COP(=O)(N(C)C)N%19C[C@@H](COP(=O)(N(C)C)N%20C[C@@H](COP(=O)(N(C)C)N%21C[C@@H](COP(=O)(N(C)C)N%22C[C@@H](COP(=O)(N(C)C)N%23C[C@@H](COP(=O)(N(C)C)N%24CCN(C(=O)CCCN%25C(=O)CC(SC[C@H](NC(=O)[C@H](CCCNC(=N)N)NC(=O)[C@H](CCCNC(=N)N)NC(=O)[C@H](CCCNC(=N)N)NC(=O)[C@H](CCCNC(=N)N)NC(=O)[C@H](Cc%26ccccc%26)NC(=O)[C@H](Cc%26ccccc%26)NC(=O)[C@H](CCCNC(=N)N)NC(=O)[C@H](CCCNC(=N)N)NC(=O)[C@H](CCCNC(=N)N)NC(=O)[C@H](CCCNC(=N)N)NC(=O)[C@@H](N)CCCNC(=N)N)C(N)=O)C%25=O)CC%24)O[C@@H](n%24cnc%25c(=O)[nH]c(N)nc%25%24)C%23)O[C@@H](n%23cc(C)c(=O)[nH]c%23=O)C%22)O[C@@H](n%22ccc(N)nc%22=O)C%21)O[C@@H](n%21cnc%22c(N)ncnc%22%21)C%20)O[C@@H](n%20cc(C)c(=O)[nH]c%20=O)C%19)O[C@@H](n%19ccc(N)nc%19=O)C%18)O[C@@H](n%18cc(C)c(=O)[nH]c%18=O)C%17)O[C@@H](n%17cc(C)c(=O)[nH]c%17=O)C%16)O[C@@H](n%16cnc%17c(=O)[nH]c(N)nc%17%16)C%15)O[C@@H](n%15ccc(N)nc%15=O)C%14)O[C@@H](n%14cnc%15c(=O)[nH]c(N)nc%15%14)C%13)O[C@@H](n%13ccc(N)nc%13=O)C%12)O[C@@H](n%12ccc(N)nc%12=O)C%11)O[C@@H](n%11cnc%12c(N)ncnc%12%11)C%10)O[C@@H](n%10cc(C)c(=O)[nH]c%10=O)C9)O[C@@H](n9cc(C)c(=O)[nH]c9=O)C8)O[C@@H](n8cc(C)c(=O)[nH]c8=O)C7)O[C@@H](n7cc(C)c(=O)[nH]c7=O)C6)O[C@@H](n6cc(C)c(=O)[nH]c6=O)C5)O[C@@H](n5cnc6c(=O)[nH]c(N)nc65)C4)O[C@@H](n4cc(C)c(=O)[nH]c4=O)C3)O[C@@H](n3cnc4c(=O)[nH]c(N)nc43)C2)O[C@@H](n2cnc3c(=O)[nH]c(N)nc32)C1 (some centres unmarked)	Kaposi's sarcoma-associated herpesvirus	flow cytometry	BCBL1 cells	8 µM, added: TPA		RTA-positive cells	~7%
C[C@H](NP(=O)(Nc1ccn([C@H]2CS[C@@H](COP(=O)(N[C@@H](C)C(=O)OCc3ccccc3)N[C@@H](C)C(=O)OCc3ccccc3)O2)c(=O)n1)N[C@@H](C)C(=O)OCc1ccccc1)C(=O)OCc1ccccc1	HIV-2	viral replication	CCRF-CEM, ROD	4 d		EC50	58000 ± 44000 nM
CC(C)[C@H](NC(=O)[C@H](Cc1c[nH]c2ccccc12)NC(=O)[C@H](Cc1c[nH]cn1)NC(=O)[C@H](CCCNC(=N)N)NC(=O)[C@H](CCCNC(=N)N)NC(=O)[C@H](Cc1c[nH]c2ccccc12)NC(=O)[C@H](Cc1c[nH]c2ccccc12)NC(=O)[C@H](Cc1c[nH]cn1)NC(=O)[C@H](Cc1c[nH]c2ccccc12)NC(=O)[C@H](CCCNC(=N)N)NC(=O)[C@@H](N)CCCCN)C(=O)N[C@H](C(=O)N[C@@H](Cc1c[nH]c2ccccc12)C(N)=O)C(C)C	Mycobacterium bovis		isoniazid-resistant mutant, broth with pyruvate	48 h, 37 °C		MIC	5 µM (≈ 10.1 µg/mL)
Nc1c(C(=O)Nc2ccc(F)cc2Cl)sc2nc(-c3ccc(F)cc3)ccc12	Bacillus anthracis		Sterne			MIC50	> 80 µM
N=C(N)NCCC[C@H](NC(=O)[C@H](CCCNC(=N)N)NC(=O)[C@H](Cc1c[nH]c2ccccc12)NC(=O)[C@H](Cc1c[nH]c2ccccc12)NC(=O)[C@H](CCCCN)NC(=O)[C@H](Cc1c[nH]c2ccccc12)NC(=O)[C@H](Cc1c[nH]c2ccccc12)NC(=O)[C@H](CCCNC(=N)N)NC(=O)[C@@H](N)CCCCN)C(N)=O	Bacillus anthracis		34F2 Sterne, LB medium	24 h, 37 °C		MIC	80 µM (≈ 119 µg/mL)
Cc1cc(/C=C/C#N)cc(C)c1Oc1nc(NC2CCN(Cc3ccc(P(C)(C)=O)cc3)CC2)nc2ccsc12	Human immunodeficiency virus 1	viral replication	MT-4, Y188L mutant		reference: doravirine EC50 over compound EC50	potency ratio	~262 fold
O=C(NN1C(=O)[C@@H]2[C@@H]3C=C[C@@H]([C@H]4C[C@@H]34)[C@@H]2C1=O)c1ccc(C(F)(F)F)cc1	monkeypox virus		mice	oral, 50 mg/kg once daily, day 10		lung viral titre	2.78 log10 TCID50/g and 3.41 log10 TCID50/g and 3.37 log10 TCID50/g

Excerpt of the above:
SMILES	organism	test	test system	setting	how to read	quantity	result
NC12CC3CC(CC(C3)C1)C2	Influenza A virus	viral replication	MDCK, A/Swine/Minnesota/34-0818/2011 (H1N2)			EC50	< 1000 nM
